Measured values pooled from the literature.
Each line is one published result; not all experiments were run side by side. ± marks the error that the study gave.

CC1=C(C=O)C(C)(C)CC=C1 gave a degradation of 68% (simulated intestinal fluid; 500 µM, 4 h, pH 6.8, 37 °C).
CCCCCCc1ccc(S(=O)(=O)N2CC2C(N)=O)cc1 (stereo not drawn) has a degradation of 49% (ring opening; aqueous Tris-HCl buffer; 3.5 h, pH 7.4, without DTT).
CC(=O)Oc1ccccc1C(=O)[O][Pt]([NH2])([NH2])([Cl])([Cl])[O]C(=O)CCCc1ccccc1 gave a degradation of roughly 10% (HPLC; phosphate buffer; 1 day, pH 7, 37 °C).
With CSCC[C@H](N)C(=O)N[C@@H](Cc1ccc(O)cc1)C(=O)N[C@@H](Cc1ccccc1)C(=O)O the degradation was 5.57% (HPLC; solution; 1 mg/mL, 60 days, 25 °C).
With O=C(O[C@@H]1Cc2c(O)cc(O)cc2O[C@@H]1c1cc(O)c(O)c(O)c1)c1cc(O)c(O)c(O)c1 the degradation was 36.5 ± 3.06% (UV-Vis; PBS; 0.02 mg/mL, 5 h, pH 7.4).
CC(C)C(N)C(=O)OCC(=O)C1(O)CCC2C3CCC4=CC(=O)C=CC4(C)C3C(O)CC21C (stereo not drawn) — result for “degradation rate constant”: 0.0416 ± 0.0005 min⁻¹ (SIRC cell homogenate; pH 7.4, 37 °C, protein 0.5 mg/mL).
Under “degradation rate constant”, CCOC(=O)CCC(=O)Oc1ccc(/C=C/C(=O)/C=C(O)/C=C/c2ccc(OC(=O)CCC(=O)OCC)c(OC)c2)cc1OC is recorded as 7.61 ± 0.5 min⁻¹ (rat plasma; 1.5 µM, 37 °C).
For CC(C)Cc1ccc(C(C)C(=O)[O][Pt]([NH2])([NH2])([Cl])([Cl])[O]C(=O)CCCc2ccccc2)cc1 (stereo not drawn), the degradation was roughly 25% (HPLC; phosphate buffer; 1 day, pH 7, 37 °C).
COc1c2c(cc3oc(C)cc(=O)c13)OC(C(C)(C)O)C2 (stereo not drawn) gave a degradation of no more than 36% (rat plasma; 15 min, 37 °C).

Some of these lines once more:
CCCCCCc1ccc(S(=O)(=O)N2CC2C(N)=O)cc1 (stereo not drawn) has a degradation of 49% (ring opening; aqueous Tris-HCl buffer; 3.5 h, pH 7.4, without DTT).
